Experimental data pooled from the literature.
Parts stem from different laboratories: compare values within a part only.
Chain of UniProt Q9UBF8 (whole entry, looked up): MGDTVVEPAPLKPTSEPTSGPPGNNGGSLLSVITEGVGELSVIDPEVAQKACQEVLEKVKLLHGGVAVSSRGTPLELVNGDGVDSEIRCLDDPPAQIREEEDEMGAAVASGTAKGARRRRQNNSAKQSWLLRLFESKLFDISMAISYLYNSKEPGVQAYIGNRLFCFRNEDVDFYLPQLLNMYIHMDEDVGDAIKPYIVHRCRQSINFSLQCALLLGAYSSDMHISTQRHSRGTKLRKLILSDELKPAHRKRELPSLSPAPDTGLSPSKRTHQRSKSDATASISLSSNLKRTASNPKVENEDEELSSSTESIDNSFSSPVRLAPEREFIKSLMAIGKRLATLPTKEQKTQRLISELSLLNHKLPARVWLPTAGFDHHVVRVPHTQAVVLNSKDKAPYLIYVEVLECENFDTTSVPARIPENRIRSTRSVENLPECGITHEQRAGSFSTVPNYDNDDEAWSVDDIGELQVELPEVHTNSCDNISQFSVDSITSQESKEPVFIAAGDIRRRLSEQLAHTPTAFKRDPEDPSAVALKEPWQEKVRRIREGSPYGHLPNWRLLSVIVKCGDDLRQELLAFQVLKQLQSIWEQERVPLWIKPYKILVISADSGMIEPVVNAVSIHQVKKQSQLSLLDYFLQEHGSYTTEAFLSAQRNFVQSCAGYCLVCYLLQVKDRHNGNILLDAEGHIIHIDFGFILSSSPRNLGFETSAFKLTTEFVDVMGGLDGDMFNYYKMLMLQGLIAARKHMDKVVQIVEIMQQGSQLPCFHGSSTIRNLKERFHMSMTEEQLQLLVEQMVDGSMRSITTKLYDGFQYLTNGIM
Chain of UniProt Q00535 (whole entry, looked up): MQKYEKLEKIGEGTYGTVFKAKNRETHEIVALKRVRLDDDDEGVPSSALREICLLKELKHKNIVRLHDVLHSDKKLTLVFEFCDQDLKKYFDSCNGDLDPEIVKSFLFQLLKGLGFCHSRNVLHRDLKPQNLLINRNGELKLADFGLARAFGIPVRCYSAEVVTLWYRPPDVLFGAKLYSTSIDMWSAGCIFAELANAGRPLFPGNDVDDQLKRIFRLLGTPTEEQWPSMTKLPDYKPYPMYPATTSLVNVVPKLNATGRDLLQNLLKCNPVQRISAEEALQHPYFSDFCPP
Chain of UniProt P49674 (whole entry, looked up): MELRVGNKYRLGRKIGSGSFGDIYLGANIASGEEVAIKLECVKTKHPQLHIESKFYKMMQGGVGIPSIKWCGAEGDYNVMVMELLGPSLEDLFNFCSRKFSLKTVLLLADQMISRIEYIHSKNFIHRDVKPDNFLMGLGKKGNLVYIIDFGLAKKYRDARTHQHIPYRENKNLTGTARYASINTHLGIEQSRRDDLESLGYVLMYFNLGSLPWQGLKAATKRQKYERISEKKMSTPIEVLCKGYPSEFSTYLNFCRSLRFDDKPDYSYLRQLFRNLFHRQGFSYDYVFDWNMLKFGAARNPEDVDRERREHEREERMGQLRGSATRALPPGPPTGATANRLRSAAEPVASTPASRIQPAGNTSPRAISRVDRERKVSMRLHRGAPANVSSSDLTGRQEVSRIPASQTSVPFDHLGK
Chain of UniProt Q9UQ88 (whole entry, looked up): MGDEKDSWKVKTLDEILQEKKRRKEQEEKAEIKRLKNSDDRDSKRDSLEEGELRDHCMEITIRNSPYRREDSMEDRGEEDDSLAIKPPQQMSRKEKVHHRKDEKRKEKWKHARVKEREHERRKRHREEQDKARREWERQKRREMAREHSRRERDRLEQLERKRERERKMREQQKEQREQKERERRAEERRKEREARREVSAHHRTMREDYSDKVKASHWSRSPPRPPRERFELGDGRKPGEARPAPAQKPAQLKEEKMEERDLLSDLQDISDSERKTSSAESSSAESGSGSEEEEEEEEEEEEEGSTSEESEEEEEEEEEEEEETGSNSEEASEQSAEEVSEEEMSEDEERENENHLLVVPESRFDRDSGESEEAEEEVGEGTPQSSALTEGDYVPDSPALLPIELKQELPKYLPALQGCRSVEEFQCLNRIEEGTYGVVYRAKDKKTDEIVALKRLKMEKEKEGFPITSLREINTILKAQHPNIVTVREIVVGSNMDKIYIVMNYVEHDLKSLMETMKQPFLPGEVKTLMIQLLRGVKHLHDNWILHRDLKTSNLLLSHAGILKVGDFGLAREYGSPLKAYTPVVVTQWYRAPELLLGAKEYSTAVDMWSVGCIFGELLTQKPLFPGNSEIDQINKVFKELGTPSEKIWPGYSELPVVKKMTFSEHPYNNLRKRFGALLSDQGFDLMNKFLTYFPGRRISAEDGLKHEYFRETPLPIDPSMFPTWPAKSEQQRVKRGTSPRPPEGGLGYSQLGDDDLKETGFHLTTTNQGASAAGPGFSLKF
Chain of UniProt O75116 (whole entry, looked up): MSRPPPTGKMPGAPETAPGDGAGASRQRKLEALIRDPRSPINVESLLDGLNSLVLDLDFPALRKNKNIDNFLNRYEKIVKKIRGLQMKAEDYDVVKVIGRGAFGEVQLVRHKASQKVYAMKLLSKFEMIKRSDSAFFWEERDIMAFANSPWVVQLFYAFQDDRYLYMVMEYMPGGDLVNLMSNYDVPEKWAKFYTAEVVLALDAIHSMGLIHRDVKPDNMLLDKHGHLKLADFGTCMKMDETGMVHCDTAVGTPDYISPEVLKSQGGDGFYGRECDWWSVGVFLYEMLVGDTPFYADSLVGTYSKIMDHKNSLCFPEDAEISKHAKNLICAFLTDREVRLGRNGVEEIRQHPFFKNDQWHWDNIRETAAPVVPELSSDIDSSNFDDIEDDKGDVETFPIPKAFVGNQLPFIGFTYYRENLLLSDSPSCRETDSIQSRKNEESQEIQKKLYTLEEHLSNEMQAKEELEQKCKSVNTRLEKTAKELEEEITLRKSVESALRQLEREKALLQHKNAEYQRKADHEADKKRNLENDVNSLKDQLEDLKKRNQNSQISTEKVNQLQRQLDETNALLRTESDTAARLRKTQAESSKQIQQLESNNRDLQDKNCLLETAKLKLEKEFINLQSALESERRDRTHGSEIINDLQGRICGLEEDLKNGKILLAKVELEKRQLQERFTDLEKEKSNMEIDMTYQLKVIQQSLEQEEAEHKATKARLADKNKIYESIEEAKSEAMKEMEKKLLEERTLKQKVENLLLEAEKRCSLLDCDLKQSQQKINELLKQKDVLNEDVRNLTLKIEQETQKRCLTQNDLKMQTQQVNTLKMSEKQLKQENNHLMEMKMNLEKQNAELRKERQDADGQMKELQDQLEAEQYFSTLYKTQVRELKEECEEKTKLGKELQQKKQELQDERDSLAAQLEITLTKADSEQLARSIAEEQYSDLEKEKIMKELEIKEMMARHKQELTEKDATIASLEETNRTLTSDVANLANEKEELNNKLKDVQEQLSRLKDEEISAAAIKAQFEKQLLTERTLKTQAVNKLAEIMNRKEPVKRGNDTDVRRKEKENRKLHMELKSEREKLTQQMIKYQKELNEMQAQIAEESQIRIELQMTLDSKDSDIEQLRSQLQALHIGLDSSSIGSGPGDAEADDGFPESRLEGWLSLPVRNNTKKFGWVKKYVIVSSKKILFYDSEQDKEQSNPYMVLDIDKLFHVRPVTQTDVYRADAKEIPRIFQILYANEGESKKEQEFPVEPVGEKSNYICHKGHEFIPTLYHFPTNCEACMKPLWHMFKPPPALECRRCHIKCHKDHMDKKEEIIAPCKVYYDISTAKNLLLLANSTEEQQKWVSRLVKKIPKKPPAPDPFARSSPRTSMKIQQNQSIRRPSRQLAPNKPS

Sample 1
Target: Sal-like protein 4, full length isoform B (SALL4, Homo sapiens, UniProt Q9UJQ4-2, residues 1-616)
Method: universal PBM
Form: double-stranded DNA, one strand shown
Sample: in vitro
Tested at: not given
Setting: 8-mer, flanks averaged, mean of replicates
Reading: higher = stronger binding
Endpoint: E-score
Target sequence (chain): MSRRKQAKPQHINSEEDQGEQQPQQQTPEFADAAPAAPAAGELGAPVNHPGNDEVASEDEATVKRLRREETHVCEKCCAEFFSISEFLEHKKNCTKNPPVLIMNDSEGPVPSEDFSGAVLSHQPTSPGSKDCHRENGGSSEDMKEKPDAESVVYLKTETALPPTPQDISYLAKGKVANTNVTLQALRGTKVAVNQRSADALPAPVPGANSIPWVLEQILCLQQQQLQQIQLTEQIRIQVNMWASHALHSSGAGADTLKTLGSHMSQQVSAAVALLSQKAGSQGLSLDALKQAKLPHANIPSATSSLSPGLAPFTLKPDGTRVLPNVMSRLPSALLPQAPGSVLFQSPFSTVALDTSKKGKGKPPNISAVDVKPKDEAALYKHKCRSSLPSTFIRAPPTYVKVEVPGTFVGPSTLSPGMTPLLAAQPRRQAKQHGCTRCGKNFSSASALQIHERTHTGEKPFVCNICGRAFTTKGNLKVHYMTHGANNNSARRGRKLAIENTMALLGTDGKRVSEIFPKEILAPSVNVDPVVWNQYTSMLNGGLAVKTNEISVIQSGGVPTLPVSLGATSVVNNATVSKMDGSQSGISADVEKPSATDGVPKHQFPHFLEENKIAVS
ACTAGGCT: -0.00457
AATTCGTG: 0.0888
AATGCGTC: -0.0591
ACATCGCA: -0.158
ATATTCGA: 0.264
AAACGTAA: 0.22
GTAACTGA: 0.0513
TCACGGGA: 0.019

Sample 2
Target: Tyrosine-protein kinase Fer (FER, Homo sapiens, UniProt P16591)
Chain of UniProt P16591 (whole entry, looked up): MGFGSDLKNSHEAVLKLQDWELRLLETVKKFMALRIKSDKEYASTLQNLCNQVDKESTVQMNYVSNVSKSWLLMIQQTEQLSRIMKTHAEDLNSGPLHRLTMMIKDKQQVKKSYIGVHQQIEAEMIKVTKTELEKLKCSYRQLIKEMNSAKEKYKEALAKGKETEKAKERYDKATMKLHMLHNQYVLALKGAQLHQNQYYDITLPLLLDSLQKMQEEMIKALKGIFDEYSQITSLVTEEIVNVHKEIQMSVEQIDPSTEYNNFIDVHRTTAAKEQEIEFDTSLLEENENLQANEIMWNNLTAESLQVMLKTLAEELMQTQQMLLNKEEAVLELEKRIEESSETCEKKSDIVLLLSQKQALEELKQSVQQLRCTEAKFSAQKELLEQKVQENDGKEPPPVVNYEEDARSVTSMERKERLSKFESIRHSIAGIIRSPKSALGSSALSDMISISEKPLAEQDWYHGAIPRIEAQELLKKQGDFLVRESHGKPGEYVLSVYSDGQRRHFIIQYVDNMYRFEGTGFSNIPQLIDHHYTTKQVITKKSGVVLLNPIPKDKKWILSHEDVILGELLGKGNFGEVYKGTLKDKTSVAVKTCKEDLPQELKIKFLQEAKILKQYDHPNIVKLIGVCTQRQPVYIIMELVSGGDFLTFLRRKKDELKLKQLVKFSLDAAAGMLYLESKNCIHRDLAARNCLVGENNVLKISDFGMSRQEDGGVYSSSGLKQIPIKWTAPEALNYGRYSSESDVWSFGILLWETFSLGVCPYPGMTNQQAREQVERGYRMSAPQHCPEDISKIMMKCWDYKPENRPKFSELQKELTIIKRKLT
Observed: enzyme activity
Action: inhibitor
Tested at: 0.5 µM
Reference: control
Endpoint: remaining activity
Clc1ccc(Nc2nnc(Cc3ccncc3)c3ccccc23)cc1: 91.4%
FC(F)(F)c1ccc(/C=C/c2nc(COc3ccc(CCCCn4ccnn4)cc3)co2)cc1: 102%
N#C/C(=C(/N)SC1C=CC=CC1)c1cccc(C(O)c2ccncc2)c1 (centres unmarked): 94.2%
O=C(c1ccccc1)c1ccc(N2CCOCC2)cc1O: 94.2%
N#CC(c1ccnc(NCCc2cccnc2)n1)c1nc2ccccc2s1 (centres unmarked): 91%
COc1cc2c(Nc3ccc(Br)cc3F)ncnc2cc1OCC1CCN(C)CC1: 95.8%
O=C1NC(=O)/C(=C/c2ccc3c(c2)OC(F)(F)O3)S1: 97.2%
Nc1nc(Nc2ccc(S(N)(=O)=O)cc2)nn1C(=S)Nc1c(F)cccc1F: 21.7%
NC(=O)c1ccc(-c2nc(-c3ccc4c(c3)OCCO4)c(-c3ccccn3)[nH]2)cc1: 93.3%
CC(C)N(CCC(=O)c1ccc2ccccc2c1)Cc1ccccc1: 105%

Sample 3
SMILES: Cc1nc(C2CCN(C(=O)c3ccc(OC(F)(F)F)cc3N)CC2)c2ncc(N3CCN(C)CC3)cc2n1
Method: competition with immobilised ligand
Tested at: 1 µM
Endpoint: remaining binding
Receptor-type tyrosine-protein kinase FLT3 (FLT3, Homo sapiens, UniProt P36888, R834Q); cell-free assay: 100%
Cyclin-dependent kinase 5 (CDK5, Homo sapiens, UniProt Q00535); cell-free assay: 88%
Serine/threonine-protein kinase 38-like (STK38L, Homo sapiens, UniProt Q9Y2H1); cell-free assay: 100%
Cyclin-dependent kinase 11A (CDK11A, Homo sapiens, UniProt Q9UQ88); binding: 100%
Serine/threonine-protein kinase B-raf (BRAF, Homo sapiens, UniProt P15056, V600E); cell-free assay: 100%
Rho-associated protein kinase 2 (ROCK2, Homo sapiens, UniProt O75116); cell-free assay: 91%
Epidermal growth factor receptor (EGFR, Homo sapiens, UniProt P00533, G719C); cell-free assay: 100%
Mitotic checkpoint serine/threonine-protein kinase BUB1 (BUB1, Homo sapiens, UniProt O43683); cell-free assay: 96%
Ribosomal protein S6 kinase alpha-3, C-terminal kinase domain (RPS6KA3, Homo sapiens, UniProt P51812); cell-free assay: 82%
Cyclin-G-associated kinase (GAK, Homo sapiens, UniProt O14976); cell-free assay: 100%
Phosphatidylinositol 4-kinase beta (PI4KB, Homo sapiens, UniProt Q9UBF8); cell-free assay: 84%
Casein kinase I isoform epsilon (CSNK1E, Homo sapiens, UniProt P49674); cell-free assay: 100%
Phosphatidylinositol 3-kinase catalytic subunit type 3 (PIK3C3, Homo sapiens, UniProt Q8NEB9); cell-free assay: 95%

Single results of other studies
PhoQ, residues 284 288 289 292 302 303 TTCLQL — fold induction (PhoP, residues 12 14 15 18 19 VQGLL (Escherichia coli, UniProt P23836); Sort-seq, refers to: YFP reporter; E. coli; PhoQ-PhoP variant library, with: 10 µM Mg2+; reference: high Mg2+ state, higher = stronger signaling): 9.6

Excerpt of the above (sample 3):
Phosphatidylinositol 4-kinase beta (PI4KB, Homo sapiens, UniProt Q9UBF8); cell-free assay: 84%
Epidermal growth factor receptor (EGFR, Homo sapiens, UniProt P00533, G719C); cell-free assay: 100%
Serine/threonine-protein kinase B-raf (BRAF, Homo sapiens, UniProt P15056, V600E); cell-free assay: 100%
Receptor-type tyrosine-protein kinase FLT3 (FLT3, Homo sapiens, UniProt P36888, R834Q); cell-free assay: 100%
Mitotic checkpoint serine/threonine-protein kinase BUB1 (BUB1, Homo sapiens, UniProt O43683); cell-free assay: 96%
